Published values pooled from the literature.
Each numbered part is a random draw from the data of one study; scales do not carry over between parts.

Sample 1
Target: Histone acetyltransferase KAT6A, winged helix 2, GST fusion (KAT6A, Homo sapiens, UniProt Q92794, residues 85-181)
Method: protein binding microarray
Form: double-stranded DNA, one strand shown
Medium: in vitro
Tested at: not given
Notes: 8-mer, flanks averaged, mean of 2 arrays, mostly near background
Relative to: not given
Direction: higher = stronger binding
Residues (chain): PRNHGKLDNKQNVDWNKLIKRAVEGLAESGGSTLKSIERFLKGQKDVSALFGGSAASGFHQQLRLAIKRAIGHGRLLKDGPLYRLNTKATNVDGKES
| Strand | E-score |
| --- | --- |
| ATCTCTTC | -0.0222 |
| GTTCGGCA | 0.0579 |
| TGCAAGAA | 0.141 |
| AAACCGCA | -0.0139 |
| GCTATAGC | -0.215 |
| AGGCTCGC | 0.119 |
| GGCCAAGA | 0.0108 |
| CAATCCGG | 0.134 |
| AGTCGAAC | -0.05 |
| AGTATCTC | -0.0488 |
| CGGGGAGA | 0.0299 |
| CATCTCGA | 0.0198 |
| AGTCCATA | -0.271 |
| AGAGTCCA | -0.0632 |
| GTATCGAA | -0.0205 |
| CGGATCTC | 0.0327 |
| CCATGAGG | -0.109 |
| CCGGGAGG | 0.142 |
| AAGACAAT | -0.0475 |
| ATGGGTAC | -0.183 |
| GCCGTACC | 0.275 |
| CCTAGCGA | -0.0223 |
| GGCAGGGA | 0.0269 |
| ACGCGTCG | 0.0385 |
| AAAAGTTA | -0.0505 |

Sample 2
Target: UBE2U UBC core domain (UniProt Q5VVX9)
Method: yeast two-hybrid
Medium: yeast
Notes: mostly zero background
Relative to: not given
Direction: higher = stronger interaction
B1: ZMYND11 RING domain (UniProt Q15326); chain DEIDWETENHDWYCFECHLPGEVLICDLCFRVYHSKCLSDEFRLRDSSSPWQCPVCRSIKKKNTNKQEM
B2: TRIM41 RING domain (UniProt Q8WV44); chain PVQTLQEEAVCAICLDYFTDPVSIGCGHNFCRVCVTQLWGGEDEEDRDELDREEEEEDGEEE
B3: RNF182 RING domain (UniProt Q8N6D2); chain AESQASDELECKICYNRYNLKQRKPKVLECCHRVCAKCLYKIIDFGDSPQGVIVCPFCRFETCLPDDEV
B4: RUFY1 RING domain (UniProt Q96T51); chain QALKGHAWLKDDEATHCRQCEKEFSISRRKHHCRNCGHIFCNTCSSNELALPSYPKPVRVCDSCHTLLLQRCSSTAS
B5: ZNRF4 RING domain (UniProt Q8WWF5); chain VRTFTWHNDLCAICLDEYEEGDQLKILPCSHTYHCKCIDPWFSQAPRRSCPVCKQSVAATEDSF
B6: RNF103 RING domain (UniProt O00237); chain WPADMLHCTECVVCLENFENGCLLMGLPCGHVFHQNCIVMWLAGGRHCCPVCRWPSYKKKQPY
B7: RNF186 RING domain (UniProt Q9NXI6); chain HSGSTECDLECLVCREPYSCPRLPKLLACQHAFCAICLKLLLCVQDNTWSITCPLCRKVTAVPGGLI
B8: TRIM11 RING domain (UniProt Q96F44); chain LSTNLQEEATCAICLDYFTDPVMTDCGHNFCRECIRRCWGQPEGPYACPECRELSPQRNLRP
B9: RING1 RING domain (UniProt Q06587); chain SPRSLHSELMCPICLDMLKNTMTTKECLHRFCSDCIVTALRSGNKECPTCRKKLVSKRSLR
B10: MID2 RING domain (UniProt Q9UJV3); chain KMETLESELTCPICLELFEDPLLLPCAHSLCFSCAHRILVSSCSSGESIEPITAFQCPTCRYVISLNHRGL
Residues (chain): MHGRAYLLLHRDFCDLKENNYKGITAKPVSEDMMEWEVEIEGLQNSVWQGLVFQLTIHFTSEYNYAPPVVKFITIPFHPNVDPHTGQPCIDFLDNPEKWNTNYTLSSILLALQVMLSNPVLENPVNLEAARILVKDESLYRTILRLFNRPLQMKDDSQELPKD
| Molecule | lacZ reporter activity |
| --- | --- |
| ASEEEFQFLRCQQCQAEAKCPKLLPCLHTLCSGCLEASGMQCPICQAPWPLGADTP (PML RING domain (UniProt P29590)) | 7900 |
| B1 (ZMYND11 RING domain) | 0 |
| B2 (TRIM41 RING domain) | 0 |
| B3 (RNF182 RING domain) | 0 |
| B4 (RUFY1 RING domain) | 14700 |
| B5 (ZNRF4 RING domain) | 0 |
| B6 (RNF103 RING domain) | 14800 |
| B7 (RNF186 RING domain) | 16100 |
| B8 (TRIM11 RING domain) | 0 |
| B9 (RING1 RING domain) | 8950 |
| B10 (MID2 RING domain) | 11600 |

Sample 3
Target: RING finger protein unkempt homolog, zinc fingers 1-6, GST-SBP tag (UNK, Homo sapiens, UniProt Q9C0B0, residues 30-357)
Sequence of UniProt Q9C0B0 (30-357, looked up): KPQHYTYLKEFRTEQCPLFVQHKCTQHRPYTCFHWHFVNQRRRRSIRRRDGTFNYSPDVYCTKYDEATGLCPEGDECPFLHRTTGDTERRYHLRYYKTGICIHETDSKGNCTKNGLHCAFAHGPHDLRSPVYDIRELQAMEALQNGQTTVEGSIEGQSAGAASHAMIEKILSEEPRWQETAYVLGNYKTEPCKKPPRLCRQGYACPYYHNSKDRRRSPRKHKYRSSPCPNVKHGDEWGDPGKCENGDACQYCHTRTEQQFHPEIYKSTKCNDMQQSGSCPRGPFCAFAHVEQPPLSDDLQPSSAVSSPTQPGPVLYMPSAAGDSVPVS
Method: RNA Bind-n-Seq
Form: RNA
Medium: in vitro
Tested at: not given
Notes: RNA with constant flanks, human and mouse sites, ends assumed
Relative to: input RNA pool
Direction: higher = stronger binding
| Strand | bound/input enrichment |
| --- | --- |
| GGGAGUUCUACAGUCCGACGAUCAAUUUGUCUUGUGAUUUUAAACUUAUGAGUCAAGAAGGGUCUCUUCCUUUAUCAUUGCCUUUUAGGAAAUUUUCCACAUCUUUCAGUGUUUGAACUUACUUGUGCUUGAGAUUCUACAGUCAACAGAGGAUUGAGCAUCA | 0.186 ratio |
| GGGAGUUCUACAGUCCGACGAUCAAGUGGUUGCGGGAAAUAUUGAUCUGCAGGAAUAAAUUUCUUCUUAAAAAUAAGCAGGCAGAUAGAAGUUCCUGUCACUUUCUCCUUUUUUACGGGGUAGGAUGUGAUAUUCCUUCUAGUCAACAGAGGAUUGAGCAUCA | 0.289 ratio |
| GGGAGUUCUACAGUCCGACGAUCAUUAAUGCGCUAAUGCACGCAUUGACUGACUUAAGAAAGAAGAAUCCCAACAUAAAAAGUUUGGUUGUUUCUCAGUUUACAACAUUCCUGUCUUUAAUAGAAAUACCACUUAAAGCCUCUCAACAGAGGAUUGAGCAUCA | 0.265 ratio |
| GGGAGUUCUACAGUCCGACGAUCUGCGUGUGAACUGAACAGACGGAGAAGAUGUGCUAGGGAGAAUCUGCCUCCACAGUCACCCAUUUCAUUGCUCGCUGCGAAAGAGACGUGAGACUGACAUAUGCCAUUAUCUCUUUUCCACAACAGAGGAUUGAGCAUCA | 0.127 ratio |
| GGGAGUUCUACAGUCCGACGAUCGAUGUCAACAGCUGGCUCCUCACCUUUGGAUUCCAGCUGCACAACGUGAUACCUGGCUAUCCCAAGCCAGACACAGAUGCCAUGGAACCCUCCUACGAGCUCGUACACACACAGAUGAAACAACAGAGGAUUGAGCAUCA | 0.192 ratio |
| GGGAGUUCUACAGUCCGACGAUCGAUGGGGGCCUUGUUUUGUUUUGUUUUGGUUUUUGGAGACAGGGUCUCACUGUGUAGUCCUAGCUGGCCUGGAACUCACUAUGUAGAUCAGGCUGGACUGAACUCACAAAGAUCCACCUGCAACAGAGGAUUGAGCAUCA | 0.23 ratio |
| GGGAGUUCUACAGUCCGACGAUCGGCGGCAUUCCAGAGUCUGCUGGACGCCCAGGCGGACGAGGCCGUGUUAGAUCAUCCAGACUUGAAACAUAUCGACCCAGUGGUUUUAAAACAUUGUCAUGCAGCAGCUGCAACUUACAUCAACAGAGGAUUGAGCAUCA | 0.201 ratio |
| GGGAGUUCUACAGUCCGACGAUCGGCGGGGCAUCUGAUGCCCUCCUCUACAGAGCCACAAUGGCUCUGACGCUUGGUGGCACAGCCUAUGCCAUCUAUCUGUUAGCUAUGGCUGCAUUUCCCAAGAAGCAGAACUAAUGUCGUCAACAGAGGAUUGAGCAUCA | 0.185 ratio |

Sample 4
Target: RNA binding protein fox-1 homolog 2, RRM domain, GST-SBP tag (RBFOX2, Homo sapiens, UniProt O43251-10, residues 100-194)
Method: RNA Bind-n-Seq
Form: RNA
Medium: in vitro
Tested at: 365 nM
Notes: natural RNA segment, single round, ends assumed
Relative to: no-protein control
Direction: higher = stronger binding
Target sequence (chain): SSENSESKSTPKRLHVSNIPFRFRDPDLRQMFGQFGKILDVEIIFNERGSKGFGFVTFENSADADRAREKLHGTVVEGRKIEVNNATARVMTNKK
| Strand | RBNS enrichment (R) |
| --- | --- |
| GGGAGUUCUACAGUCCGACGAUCUGUUUUCAUAUUACAGAGUGAAUUUGUAUUUAAACAAAAAUUUAAAUUUUGGAAUCCUCUAAACAUUUUUGUAUCUUUAAUUGGUUUAUUAUUAAAUAAAUCAUAUAAAAUGGAAUUCUCGGGUGCCAA | 1.19 |
| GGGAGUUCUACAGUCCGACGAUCUUGUCAACACAACACUUUGUCCCCGCUCCGGGAGAUGAGUCAGAUGGUGGCUUGAGUUGUCACUUGGUCCCCUCCGCCCCUCGGGUGGCCCCCUUUGCCACGUCCCCUUAUGGAAUUCUCGGGUGCCAA | 0.294 |
| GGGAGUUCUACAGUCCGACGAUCAAGAUGAUGGACUGCCUGAGGAUGGGCCCACCCACUUCGUGCCUCAUGGAGUUCAGUCCUAUGCACUACUCUCUCUGGAUGGUGUGUGAUUGGAUGAGUGCCAUUUCUAUUGGAAUUCUCGGGUGCCAA | 0.251 |
| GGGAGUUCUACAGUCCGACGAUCGCCCUGUUCUUAAAUUACUAGUGAUUCUAGUAGUGACAUCGUUAGUAAUUUAACUCUAUAAUUGCAGUUACAGCAUUUGGUUUUUGCCAUCUAAGAUUUUCUUGGUUUUAUGGAAUUCUCGGGUGCCAA | 0.454 |
| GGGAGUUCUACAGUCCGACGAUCUAAAUCCUUCAUGACCAUUCUCUUAAUUUGAACUCGUAGCUUGGGCUUUAAGGUAGCAUGGCUCGAUUGCUGUCGACUUAAUGUUCCACUGCACAGCAAUUCACGGCCAGUGGAAUUCUCGGGUGCCAA | 2.15 |
| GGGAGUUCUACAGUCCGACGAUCUUCCUUCUAGUAUCCGAAGAAUCUGAGCCUUCAAUGUUAAAAUUUUUCUUAAUUAAAAUGUGCUUUAUUUCACAAAAUCAACAAAUCAAAAAGAAUAUUCAUGGCAACGUUGGAAUUCUCGGGUGCCAA | 0.446 |
| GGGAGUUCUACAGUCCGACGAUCUUUGAAAUUGGGAAGAAGUGUGACAGGAUACAGUUGGGCUAAUUAUGCAAUAUUUCAUCUGUUUAAUUUUCUAACUCUGUAUUGUUCCUAAAGACGGAUGAAUGAGUCUCUGGAAUUCUCGGGUGCCAA | 0.89 |
| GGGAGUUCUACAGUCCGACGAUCAGAGGCCUGGCUUGCCUUGCCCAGUGCUGCCUAUAGCAUCCUCCCAGGGAGGCUUGCCCUGUGCCAGAAAACAAGAGGCCACCAUAUGCUUCCAAGUUGACAGGCAAUUCUGGAAUUCUCGGGUGCCAA | 0.361 |
| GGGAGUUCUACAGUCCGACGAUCACAGUGAGAGGUACCUUCCUUCUCUUUCUCAUACACACAGAUCACUAGCAAGGACUAAAGAAUUUUAUAUCAAAAUUCUCCAGGCAUGUACCAGUUCGGGUUAAUAAAAUUGGAAUUCUCGGGUGCCAA | 0.84 |

Repeated from above (sample 1):
| Strand | E-score |
| --- | --- |
| ATCTCTTC | -0.0222 |
| GTTCGGCA | 0.0579 |
| TGCAAGAA | 0.141 |
| AAACCGCA | -0.0139 |
